Experimental data from different studies.
Lines come from different studies, so protocols differ. ± gives the spread as reported.

With `COc1cc(NC(C)=O)c2c(c1O)-c1c(OC)c(OC)cc3c1C(C2)N(C)CC3` (stereo not shown) the CL/F was 57 mL/min/kg (male Wistar rat, plasma; oral, 200 mg/kg).
`CCCC(CCC)NC(=O)c1ccc(OS(=O)(=O)O)c(OC)c1` has an AUC(0-last) ratio of 2.43 (female Sprague-Dawley rats, plasma; oral, 50 mg/kg of parent drug; relative to: 50 over 20 mg/kg dose).
The apparent half-life of `CC(C)C[C@@H](NC(=O)[C@H](NC(=O)[C@H]1CCCN1)[C@H](C)O)C(=O)N[C@H](Cc1c[nH]cn1)C(=O)N[C@@H](C(=O)N[C@H](Cc1c[nH]cn1)C(=O)N[C@H](CC(N)=O)C(=O)N[C@H](CCCNC(=N)N)C(=O)N[C@H](CCCNC(=N)N)C(=O)N[C@H](CCCNC(=N)N)C(=O)N[C@H](CCCNC(=N)N)C(=O)N[C@H](CCCNC(=N)N)C(N)=O)[C@H](C)O` is reported as 80 ± 5.6 h (Beagle dog, CSF; intravenous, 3 mg/kg, single dose, last 2 points).
With `O=C(O)C1CN(Cc2ccc(-c3noc(-c4ccc(OCC[18F])c(C(F)(F)F)c4)n3)cc2)C1` the tissue uptake was 0.202 ± 0.033 %ID/g (male Sprague-Dawley rat, spleen; intravenous, 120 min).
Under “equilibrium surface tension”, `CC(C)CCCC(C)CCCC(C)CCO[C@@H]1O[C@H](CO)[C@@H](O[C@H]2O[C@H](CO)[C@@H](O)[C@H](O)[C@H]2O)[C@H](O)[C@H]1O` (stereo partly shown) is recorded as 32.1 mN/m (dynamic surface tension; 0.0145 mmol/L).
`C#CCOc1ccc(/C=C2\SC(=O)N(CC(=O)NCc3ccccc3)C2=O)cc1` gave a correlation volume of 3760 cm³/mol (inverse Kirkwood-Buff integrals; binary solvent mixture; concentration not given, 298.15 K, mole fraction x1 0.45).
For `CC(=O)[CH](C(C)=O)[Pt-2]1([S+](C)C)[O]C(C)=CC(C)=[O+]1` (stereo not shown), “remaining in circulation” read over 65% (refers to: platinum; rat; iv, dose not given, 1 h).
With `CCCC[C@H](NC(C)=O)C(=O)N[C@H]1CC(=O)NCCCC[C@@H](C(=O)N[C@@H](C(=O)N2CCC[C@@H]2C(N)=O)C(C)C)NC(=O)[C@H](Cc2c[nH]c3ccccc23)NC(=O)[C@H](CCCN=C(N)N)NC(=O)[C@@H](Cc2ccc3ccccc3c2)NC(=O)[C@@H]2CCCN2C1=O` the haematocrit was 43% (dog; day 1, start of treatment).
`NCCC(=O)N1Cc2ccccc2-c2c(nnn2-c2cn(C3OC(CO)C(O)C3O)c(=O)[nH]c2=O)-c2ccccc21` (mixture of isomers) — result for “second excitation maximum”: 370 nm (methanol; red edge of spectrum).
For `CCNC(=O)NC1CC=C(c2cc3c(Nc4cc5ncsc5cc4F)ncnc3s2)CC1` (racemic), the half-life was over 2 h (metabolic stability; human, liver microsomes).
For `Cc1noc(C)c1Cn1cc(N2C(=O)CN(Cc3cccc(O[C@@H]4O[C@H](C(=O)O)[C@@H](O)[C@H](O)[C@H]4O)c3)C2=O)cn1`, the half-life was 1.4 h (rat Sprague-Dawley male, plasma; oral, 10 mg/kg of parent drug).
`Cc1ccc(/N=N/c2c(O)ccc3ccccc23)c(C)c1`: “freeze-thaw stability deviation” 0.8% (rat whole blood; 16.0 µg/L, freeze-thaw cycle 2).
`CSCOC1C(=O)C2(C)C(OCSC)CC3OCC3(OC(C)=O)C2C(OC(=O)c2ccccc2)C2(O)CC(OC(=O)C(O)C(C=C(C)C)NC(=O)OC(C)(C)C)C(C)=C1C2(C)C` (stereo not shown) gave a clearance of 65 mL/min/kg (male Sprague-Dawley rat, plasma; intravenous, 1 mg/kg).
`NCC(=O)N1CCC[C@H]1C(=O)N1C[C@H](O)C[C@H]1C(=O)O` has a pKa1 of under 2 (potentiometric titration; water; 37 °C, 0.15 mol/dm3 NaCl).
`CSCc1ccccn1.F[P-](F)(F)(F)(F)F.F[P-](F)(F)(F)(F)F.[Ru+2].c1ccc(-c2ccccn2)nc1.c1ccc(-c2ccnc3c2ccc2c(-c4ccccc4)ccnc23)cc1` — result for “photosubstitution quantum yield”: 0.111 (UV-vis spectroscopy; deaerated acetonitrile; 298 K, added: light 521 nm).
With `Cc1cc(O)cc(O)c1C(=O)c1c2c3c(c(O)cc(C)c3oc1=O)C(=O)c1c(O)cc(O)cc1-2` the terminal half-life was 0.667 h (KM mouse, male, plasma; intraperitoneal, 30 mg/kg).
`C[Si](C)(C)C[C@H](CN)CC(=O)O` has a performance time of 180 s (neuromuscular coordination; Wistar rat male; oral, 100 mg/kg, 1 h).
`Oc1ccc2ccccc2c1/N=N/c1ccccc1`: “freeze-thaw stability deviation” -0.7% (rat whole blood; 16.0 µg/L, freeze-thaw cycle 3).
The performance time of `C[Si]1(C[C@@H](CN)CC(=O)O)CCCC1` is reported as 180 s (neuromuscular coordination; Wistar rat male; oral, 300 mg/kg, 2 h).
`N#Cc1cc(C(=O)OCC[18F])c(C(F)(F)F)nc1N1CCN(C(=O)Cc2ccccc2)CC1` gave a blood half-life of 0.509 h (mouse, whole blood; intravenous, 11.1 MBq).
Under “liver kidney spleen histopathology”, `CN(C)S(=O)(=O)c1cc(C(=O)O)ccc1NCCCCCCCC(F)(F)F` is recorded as “no effect” (WT and Ts65Dn mice; ip, 0.2 mg/kg daily, 4 weeks).
For `O=c1nc(NO)ccn1[C@@H]1O[C@H](CO)[C@@H](O)[C@H]1O`, the protein level was 0.7 fold (western blot, refers to: CYP2C11; normal rats, liver; oral, 80 mg/kg twice daily, 5 days; relative to: untreated normal rats).
`COc1cc2c(cc1OC)CN(CCCCn1ccc3cc(OCC[18F])ccc31)C2` has a liver uptake of 18.1 ± 1.16 %ID/g (male ICR mice; intravenous, 30 min post-injection).
For `O=C(NCCCN(CCCCN(CCCNC(=O)c1cccc(=O)n1[O-])C(=O)c1cccc(=O)n1[O-])C(=O)c1cccc(=O)n1[O-])c1cccc(=O)n1[O-].[89Zr+4]`, the intact complex was 98.1 ± 0.7% (radio-TLC; PBS; 7 d, pH 7.4, 37 °C, added: K^+ 10-fold excess).
`C=C(c1cc(F)c(C(=O)O)c(F)c1)c1cc2c(cc1C)C(C)(C)CCC2(C)C` gave an LDL level of 7 ± 2 mg/dL (Sprague-Dawley rat, male, plasma; oral, 100 mg/kg, 12 h, sesame oil vehicle).
`OCc1cn(Cc2ccc(-c3noc(-c4ccc(OCC[18F])c(C(F)(F)F)c4)n3)cc2)nn1` gave a tracer uptake of 5.69 %ID/g (rat, liver; intravenous, 5 min).
`F[P-](F)(F)(F)(F)F.O=C(CCC(=O)c1ccccc1)NCCN(CC(=O)Nc1ccc(C#CCN(Cc2ccccn2)Cc2ccccn2)cc1)C(=O)CCc1cn(C[c-]2cccc2)nn1.[C-]#[O+].[C-]#[O+].[C-]#[O+].[Fe+2].[Re+].c1cc[cH-]c1` has a maximum solubility of 50 µg/mL (DMEM; 10 min, room temperature).
For `CC(=O)O[C@@H]1[C@@H](OC(C)=O)[C@H](Sc2sc(C(=O)c3ccc(Br)cc3)c(N)c2-c2nc3ccccc3s2)OC[C@H]1OC(C)=O`, “maximum nontoxic concentration” read 100 µg/mL (DMEM; 72 h, coxsackievirus B4 assay host cells).
`CCCCCCCCCCCCCCCC(=O)NCCOCCOCCOCCOCCOCCOCCOCCOCCC(=O)NCCCC[C@H](NC(=O)CNC(=O)[C@@H]1CSSC[C@H](N)C(=O)N[C@@H](Cc2ccc(O)cc2)C(=O)N[C@@H]([C@@H](C)CC)C(=O)N[C@@H](CCC(N)=O)C(=O)N[C@@H](CC(N)=O)C(=O)N1)C(=O)NCC(N)=O`: “duration of sustained plasma level” over 20 h (mouse; subcutaneous depot, dose not given).
`O=C(NC1CC=C(c2cc3c(Nc4cc5ncsc5cc4F)ncnc3s2)CC1)NC1CC1` (racemic) has an intrinsic clearance of under 12 mL/min/g protein (human liver microsomes; 1 µM).
With `Cc1ccc(OCC(=O)O)cc1` the Cmax was 9620 ± 4650 ng/mL (Sprague-Dawley rat, male, plasma; oral gavage, 100 mg/kg of parent drug).
`C[N+](C)(C)CCO.O=C(O)[C@H](O)Cc1ccccc1.O=C([O-])[C@H](O)Cc1ccccc1` has a pH of 3.86 ± 1.9 (water; concentration not given).
For `COCCOCCOCCOCCOCCOCCOCCOCCNC(=O)CCc1ccc(N(c2ccc(CCC(=O)NCCOCCOCCOCCOCCOCCOCCOCCOC)cc2)c2ccc(-c3c4c(c(-c5ccc(N(c6ccc(CCC(=O)NCCOCCOCCOCCOCCOCCOCCOCCOC)cc6)c6ccc(CCC(=O)NCCOCCOCCOCCOCCOCCOCCOCCOC)cc6)cc5)c5nsnc35)N=S=N4)cc2)cc1`, the faecal excretion was about 19% (KM mice, female, faeces; intravenous, dose not given, 24 h; relative to: dose).
`CN(CCCNC(=O)c1cccc(C(=O)O)c1)CCCNC(=O)c1cc(NC(=O)c2cc(NC(=O)c3cc(NC(=O)c4cc(NC(=O)[C@H](N)CCNC(=O)c5cc(NC(=O)c6cc(NC(=O)c7nc(NC(=O)c8nccn8C)cn7C)cn6C)cn5C)cn4C)cn3C)cn2C)cn1C` — result for “injected dose in plasma”: 23% (C57BL/6 mice, plasma; intraperitoneal, 120 nmol/animal, 1.5 h).
`CCCC[C@H](NC(=O)CNC(=O)CNC(=O)CN1CCN(CC(=O)O)CCN(CC(=O)O)CC1)C(=O)N[C@H]1CC(=O)NCCCC[C@@H](C(N)=O)NC(=O)[C@H](Cc2c[nH]c3ccccc23)NC(=O)[C@H](CCCNC(=N)N)NC(=O)[C@@H](Cc2ccccc2)NC(=O)[C@H](Cc2c[nH]cn2)NC1=O` [copper-64 labelled] has a tissue uptake of 0.74 ± 0.18 %ID/g (female C57 mouse, B16/F1 melanoma, kidneys; intravenous, 0.037 MBq, 24 h).
For `OCc1[nH]nc2c1N=C(c1ccccc1Cl)c1cnc(N3CCOCC3)cc1N2`, “excretion in feces and urine” read 3.46% (human, feces and urine; oral, 10 mg; relative to: dose).
`COc1cc(OC)cc(C2=C3C(C)=C(I)C(/C=C/c4c[nH]c5ccccc45)=[N+]3[B-](F)(F)n3c(/C=C/c4c[nH]c5ccccc45)c(I)c(C)c32)c1` has an absorption maximum of 715 nm (THF).
`Cn1c(=O)oc2ccc(-c3ccc(CC(C#N)NC(=O)C4CNCCCO4)c(F)c3)cc21` (stereo not shown): “triglycerides increased incidence” 11.1% (human; oral, 20 mg once daily, treatment-related AE, multiple ascending dose).
With `COC(=O)C1OC(Oc2c(-c3ccccc3)oc3cc(O)c(O)c(O)c3c2=O)C(O)C(O)C1O` (stereo not shown) the organ weight was 0.74 ± 0.2 g (BALB/c mouse, spleen; 5 mg/kg).
For `N=C(N)NCCC[C@@H]1NC(=O)[C@H](Cc2c[nH]c3ccccc23)NC(=O)[C@@H](CC2CCCCC2)NC(=O)[C@@H]2CCCN2C(=O)[C@@H](NC(=O)CCc2ccccc2)CCCNC1=O`, “beta rate constant” read 0.27 h⁻¹ (two-compartment model; C57BL/6J mice, brain; intravenous, 1 mg/kg).
For `Cc1cc2c(cc1C1(c3ncc(C(=O)O)cn3)CC1)C(C)(C)CCC2(C)C`, the LDL level was 16 ± 3.5 mg/dL (Sprague-Dawley rat, male, plasma; oral, 100 mg/kg, 2 h, sesame oil vehicle).
With `Cc1ccc(-c2ccc(-c3cc4sccc4o3)cn2)nc1` the absorption maximum was 347 nm (aqueous HEPES buffer; pH 7.4, zinc-free ligand).
`CCn1cc(/C=C/c2ccc3ccccc3[n+]2CC)c2ccccc21` gave a molar absorptivity of 25500 M⁻¹ cm⁻¹ (DMSO).
For `C[C@H]1C[C@@H](Oc2cccc(F)n2)CCN1Cc1cnc(N[11C](C)=O)s1`, the radioligand stability was 98.2% (monkey brain homogenate; at least 30 min, room temperature).
The unbound fraction of `CC(NC(=O)OC1OC(C(=O)O)C(O)C(O)C1O)c1cc(Cl)ccc1Cn1c(=S)[nH]c(=O)c2[nH]ccc21` (stereo not shown) is reported as 36 ± 3.1% (equilibrium dialysis; beagle dog, male, plasma; 10 µM, 16 h, 37 °C).
For `CC(C)[C@H](NC(=O)[C@@H]1CCCN1C(=O)[C@H](CCCNC(=N)N)NC(=O)[C@H](CS)NC(=O)[C@H](Cc1c[nH]c2ccccc12)NC(=O)[C@H](CCCNC(=N)N)NC(=O)[C@@H](Cc1ccccc1)NC(=O)[C@H](Cc1c[nH]cn1)NC(=O)[C@H](CCC(=O)O)NC(=O)[C@H](CS)NC(=O)[C@H](CS)NC(=O)CNC(=O)[C@@H]1CC(=O)N[C@@H](CCCNC(=N)N)C(=O)NCC(=O)N[C@@H](CC(=O)O)C(=O)N[C@H](Cc2ccc(O)cc2)C(=O)N1)C(N)=O` [technetium-99m labelled], “tumour to tissue ratio” read 0.54 (C57 mouse, female, B16/F1 melanoma; intravenous, 0.037 MBq, 4 h; relative to: tumour over kidneys).
